# Measured values gathered from unrelated publications.
# Compare with care: the assays were run in different laboratories.
# Organism: Klebsiella pneumoniae
Compound,test,test system,conditions,MIC
CC[C@H](C)[C@H](N)C(=O)N[C@@H](CC(C)C)C(=O)NCC(=O)N[C@@H](CCCNC(=N)N)C(=O)N[C@H](C(=O)N[C@@H](Cc1c[nH]c2ccccc12)C(=O)N[C@@H](CCCCN)C(=O)NCC(=O)N[C@H](C(=O)N[C@@H](CCCCN)C(=O)N[C@@H](CC(=O)O)C(=O)N[C@H](C(=O)N[C@@H](CC(C)C)C(N)=O)[C@@H](C)CC)[C@@H](C)CC)[C@@H](C)CC,broth microdilution,"ATCC 27736, Mueller-Hinton broth","16 h, 37 °C",50 µM
CC(=O)N[C@@H](CCCCN)C(=O)N[C@@H](CCCCN)C(=O)N[C@@H](CC(C)C)C(=O)N[C@@H](CC(C)C)C(=O)N[C@@H](CCCCN)C(=O)N[C@@H](CC(C)C)C(=O)N[C@@H](CC(C)C)C(=O)N[C@@H](CCCCN)C(=O)N[C@@H](CCCCN)C(=O)N1CCC[C@H]1C(=O)N[C@@H](CC(C)C)C(=O)N[C@@H](CCCCN)C(=O)N[C@@H](CC(C)C)C(=O)N[C@@H](CC(C)C)C(=O)N[C@@H](CCCCN)C(N)=O,broth microdilution,ATCC 700603,"18 h, 37 °C, compound alone",> 80 µM
CC[C@H](C)[C@H](NC(=O)[C@H](CCCCN)NC(=O)[C@H](CCCNC(=N)N)NC(=O)[C@H](CCCNC(=N)N)NC(=O)[C@H](CC(C)C)NC(=O)[C@H](CCCCN)NC(=O)[C@H](CCCCN)NC(=O)[C@H](Cc1ccccc1)NC(=O)[C@H](CC(C)C)NC(=O)CNC(=O)[C@H](CCCNC(=N)N)NC(=O)[C@@H](N)CCCNC(=N)N)C(=O)N[C@@H](CCCCN)C(=O)N[C@@H](CCCCN)C(=O)NCC(=O)N[C@@H](Cc1ccccc1)C(=O)N[C@@H](CCCCN)C(=O)N[C@@H](CCCCN)C(=O)N[C@H](C(=O)N[C@@H](Cc1ccccc1)C(=O)N[C@@H](CCCCN)C(=O)N[C@@H](CCCNC(=N)N)C(=O)N[C@@H](CC(C)C)C(=O)N1CCC[C@H]1C(=O)N1CCC[C@H]1C(=O)N[C@H](C(=O)NCC(=O)N[C@H](C(=O)NCC(=O)N[C@H](C(=O)N[C@@H](CO)C(=O)O)C(C)C)C(C)C)C(C)C)[C@@H](C)CC,,ATCC 43823,highest concentration 50 µM,1.29 µM
CO[C@@]1(NC(=O)Cc2cccs2)C(=O)N2C(C(=O)O)=C(COC(N)=O)CS[C@@H]21,broth microdilution,ATCC 43816 acrAB overexpressor,with: colistin 0.5 mg/L,4 µg/mL
CC[C@H](C)[C@H](NC(=O)[C@@H](NC(=O)[C@H](Cc1ccccc1)NC(=O)CNC(=O)[C@H](CCC(N)=O)NC(=O)[C@H](CCCCN)NC(=O)[C@H](C)N)C(C)C)C(=O)N[C@@H](Cc1ccc(O)cc1)C(=O)N[C@@H](CCCNC(=N)N)C(=O)N[C@H](C(=O)N[C@@H](CCCNC(=N)N)C(=O)N[C@H](C(=O)N[C@@H](CCCNC(=N)N)C(=O)N[C@@H](CCCNC(=N)N)C(=O)NCC(=O)N[C@@H](CC(N)=O)C(=O)N[C@@H](CCCNC(=N)N)C(=O)N[C@@H](CCCCN)C(N)=O)C(C)C)C(C)C,broth dilution,ATCC 700603,,25 µM
CCN1CCN(C(=O)N[C@@H](C(=O)N[C@@H]2C(=O)N3[C@@H]2SC(C)(C)[C@@H]3C(=O)O)c2ccccc2)C(=O)C1=O,broth microdilution,ATCC 43816 acrAB overexpressor,,4 µg/mL
NC(=O)[C@@H]1CC[C@@H]2CN1C(=O)N2OS(=O)(=O)O,broth microdilution,"ATCC 1706, ESBL, NDM",compound alone,16 µg/mL
CC(=O)N[C@@H](CCCCN)C(=O)N[C@@H](CC(C)C)C(=O)N[C@@H](CC(C)C)C(=O)N[C@@H](CCCCN)C(=O)N[C@@H](CC(C)C)C(=O)N[C@@H](CC(C)C)C(=O)N[C@@H](CCCCN)C(=O)N[C@@H](CCCCN)C(=O)N1CCC[C@H]1C(=O)N[C@@H](CC(C)C)C(=O)N[C@@H](CCCCN)C(=O)N[C@@H](CC(C)C)C(=O)N[C@@H](CC(C)C)C(=O)N[C@@H](CCCCN)C(N)=O,broth microdilution,ATCC 700603,"18 h, 37 °C, compound alone",> 80 µM
NCC[C@H](O)C(=O)N[C@@H]1C[C@H](N)[C@@H](O[C@H]2O[C@H](CN)[C@@H](O)[C@H](O)[C@H]2O)[C@H](O)[C@H]1O[C@H]1O[C@H](CO)[C@@H](O)[C@H](N)[C@H]1O,broth microdilution,KPC-127 producing,,> 128 µg/mL
CC(=O)N[C@@H](CCCCN)C(=O)N[C@@H](CC(C)C)C(=O)N[C@@H](CC(C)C)C(=O)N[C@@H](CCCCN)C(=O)N[C@@H](CC(C)C)C(=O)N[C@@H](CC(C)C)C(=O)N[C@@H](CCCCN)C(=O)N[C@@H](CCCCN)C(=O)N1CCC[C@H]1C(=O)N[C@@H](CC(C)C)C(=O)N[C@@H](CCCCN)C(=O)N[C@@H](CC(C)C)C(=O)N[C@@H](CC(C)C)C(N)=O,broth microdilution,ATCC 700603,"18 h, 37 °C, compound alone",> 80 µM
CC(N)C(O)CCCCCCCCCCCCCCC(=O)CCCCCCCC(O)C(C)N (stereo not drawn),resazurin,,,23.8 µM
CC(C)OCCNc1nc(Cl)c2c(c1O)C(=O)C1=C(O)[C@]3(O)C(=O)C(C(N)=O)=C(O)[C@@H](N(C)C)[C@@H]3C[C@@H]1C2.Cl.Cl.Cl,,tet(A)-carrying,,> 32 µg/mL
C[C@@H](O)[C@H]1C(=O)N2C(C(=O)O)=C(S[C@@H]3CN[C@H](C(=O)N(C)C)C3)[C@H](C)[C@H]12,broth microdilution,KPC-127 producing,,4 µg/mL
CC[C@H]1OC(=O)[C@H](C)[C@@H](O[C@H]2C[C@@](C)(OC)[C@@H](O)[C@H](C)O2)[C@H](C)[C@@H](O[C@@H]2O[C@H](C)C[C@H](N(C)C)[C@H]2O)[C@](C)(O)C[C@@H](C)C(=O)[C@H](C)[C@@H](O)[C@]1(C)O,broth microdilution,ATCC 43816 acrAB overexpressor,,64 µg/mL
CC[C@H](C)[C@H](NC(=O)CN)C(=O)NCC(=O)N[C@@H](C)C(=O)N[C@H](C(=O)N[C@@H](CC(C)C)C(=O)N[C@@H](CCCCN)C(=O)N[C@H](C(=O)N[C@@H](CC(C)C)C(=O)N[C@H](C(=O)N[C@H](C(=O)NCC(=O)N[C@@H](CC(C)C)C(=O)N1CCC[C@H]1C(=O)N[C@@H](C)C(=O)N[C@@H](CC(C)C)C(=O)N[C@H](C(=O)N[C@@H](CO)C(=O)N[C@@H](Cc1c[nH]c2ccccc12)C(=O)N[C@H](C(=O)N[C@@H](CCCCN)C(=O)N[C@@H](CCCNC(=N)N)C(=O)N[C@@H](CCCCN)C(=O)N[C@@H](CCCNC(=N)N)C(=O)N[C@@H](CCC(N)=O)C(=O)N[C@@H](CCC(N)=O)C(N)=O)[C@@H](C)CC)[C@@H](C)CC)[C@@H](C)O)[C@@H](C)O)C(C)C)C(C)C,"broth microdilution, MH medium",NCCP 16054,"16 h, 37 °C, growth inhibition over 99%",16 µM
CC[C@H](C)[C@H](NC(=O)[C@H](CCCCN)NC(=O)[C@H](CCCCN)NC(=O)[C@H](Cc1ccccc1)NC(=O)[C@@H](NC(=O)[C@@H](NC(=O)[C@H](CCCNC(=N)N)NC(=O)[C@H](Cc1ccccc1)NC(=O)[C@@H](NC(=O)[C@H](CCCCN)NC(=O)[C@H](CCCCN)NC(=O)[C@@H](N)CCSC)[C@@H](C)CC)C(C)C)[C@@H](C)CC)C(=O)N[C@@H](CC(C)C)C(=O)N[C@@H](CCCCN)C(=O)N[C@@H](CCCNC(=N)N)C(=O)N[C@@H](CC(C)C)C(=O)N[C@H](C(=O)N[C@H](C(=O)O)C(C)C)[C@@H](C)CC,,ATCC 700603,16 to 18 h,16 µg/mL
CN(C)[C@@H]1C(O)=C(C(N)=O)C(=O)[C@@]2(O)C(O)=C3C(=O)c4c(O)c(NC(=O)CNC(C)(C)C)nc(Cl)c4C[C@H]3C[C@@H]12.Cl.Cl.Cl,,tet(A)-carrying,,> 32 µg/mL
CC[C@H](C)[C@H](NC(=O)[C@H](C)N)C(=O)N[C@@H](CO)C(=O)NCC(=O)N[C@@H](CO)C(=O)N[C@@H](CC(C)C)C(=O)N[C@H](C(=O)N[C@H](C(=O)N[C@@H](CC(C)C)C(=O)N[C@@H](Cc1ccccc1)C(=O)NCC(=O)N[C@@H](Cc1ccc(O)cc1)C(=O)N[C@@H](CCCNC(=N)N)C(=O)N[C@@H](CCCNC(=N)N)C(=O)N[C@@H](CCCNC(=N)N)C(=O)N[C@@H](CCCNC(=N)N)C(=O)N[C@@H](CCCNC(=N)N)C(=O)N[C@@H](CCCNC(=N)N)C(N)=O)[C@@H](C)O)C(C)C,broth microdilution,ATCC 13883,highest value reported,128 µM
CC[C@H](C)[C@H](NC(=O)CNC(=O)[C@H](CC(=O)O)NC(=O)[C@H](CCCNC(=N)N)NC(=O)[C@@H](NC(=O)[C@H](CC(N)=O)NC(=O)[C@H](CCCNC(=N)N)NC(=O)CNC(=O)[C@@H](NC(=O)[C@H](CCCCN)NC(=O)[C@H](CCC(=O)O)NC(=O)[C@@H](NC(=O)[C@H](CCCCN)NC(=O)[C@H](CCCCN)NC(=O)[C@H](Cc1ccccc1)NC(=O)[C@@H](NC(=O)[C@H](CCCCN)NC(=O)[C@H](Cc1c[nH]c2ccccc12)NC(=O)[C@@H](N)CCCNC(=N)N)[C@@H](C)CC)[C@@H](C)CC)C(C)C)C(C)C)C(=O)N[C@H](C(=O)N[C@@H](CCCCN)C(=O)N[C@@H](C)C(=O)NCC(=O)N1CCC[C@H]1C(=O)N[C@@H](C)C(=O)N[C@H](C(=O)N[C@@H](C)C(=O)N[C@H](C(=O)N[C@H](C(=O)NCC(=O)N[C@@H](CCC(N)=O)C(=O)N[C@@H](C)C(=O)N[C@@H](C)C(=O)N[C@H](C(=O)N[C@H](C(=O)N[C@H](C(=O)N[C@@H](CCCCN)C(N)=O)C(C)C)C(C)C)[C@@H](C)O)C(C)C)C(C)C)C(C)C)[C@@H](C)CC,,NCCP 15782 carbapenem-resistant,,2 µM
CCCCCCCC(=O)N[C@@H](CCCCN)C(=O)N[C@@H](CCCCN)C(=O)N[C@@H](C)C(=O)N[C@@H](C)C(=O)N[C@@H](CCCCN)C(=O)N[C@@H](C)C(=O)N[C@@H](C)C(=O)N[C@@H](CCCCN)C(=O)N[C@@H](CCCCN)C(=O)N1CCC[C@H]1C(=O)N[C@@H](C)C(=O)N[C@@H](CCCCN)C(=O)N[C@@H](C)C(=O)N[C@@H](C)C(=O)N[C@@H](CCCCN)C(N)=O,broth microdilution,ATCC 700603,"18 h, 37 °C, compound alone",> 80 µM
CC[C@H](C)[C@H](NC(=O)[C@H](Cc1ccc(O)cc1)NC(=O)[C@@H](NC(=O)[C@H](Cc1ccc(O)cc1)NC(=O)[C@@H]1CCCN1C(=O)[C@@H](NC(=O)[C@H](C)N)[C@@H](C)CC)[C@@H](C)CC)C(=O)N[C@@H](Cc1c[nH]c2ccccc12)C(=O)N[C@@H](CCCNC(=N)N)C(=O)N[C@@H](CC(C)C)C(=O)N[C@@H](CC(C)C)C(=O)N[C@@H](CCCNC(=N)N)C(=O)N[C@@H](CCCCN)C(=O)NCC(=O)O,broth microdilution,ATCC 700603,"18 h, 37 °C",15 µM
CN(C)CCCNc1nc(Cl)c2c(c1O)C(=O)C1=C(O)[C@]3(O)C(=O)C(C(N)=O)=C(O)[C@@H](N(C)C)[C@@H]3C[C@@H]1C2.Cl,,tet(A)-carrying,,> 32 µg/mL
COc1ccc2ccc(O)c(/C=N/[C@H]3CCCC[C@H]3/N=C/c3ccc(-c4ccccc4)cc3O)c2c1,"bacterial growth, broth microdilution",carbapenem-resistant clinical isolate,,> 40 µM
CC[C@@H](C)[C@@H](N)C(=O)N[C@@H](C(=O)N[C@H](Cc1ccc(O)cc1)C(=O)N[C@@H](C(=O)N[C@H](CCN)C(=O)N[C@H](CC(C)C)C(=O)N[C@H](CO)C(=O)N[C@H](CCN)C(=O)N[C@@H](C(=O)N[C@H](CCN)C(=O)N[C@H](Cc1c[nH]cn1)C(=O)N[C@H](CCN)C(=O)N[C@H](C)C(=O)N[C@H](CCN)C(=O)N[C@H](CCN)C(N)=O)[C@H](C)CC)[C@H](C)CC)[C@H](C)CC,broth microdilution,"CDC 0004, Mueller-Hinton broth",,4 µg/mL
